Measurements pooled from the literature.
Each numbered part is a random draw from the data of one study; scales do not carry over between parts. Numbers after ± are the reported error.

Study 1
Target: Replicase polyprotein 1ab, main protease (rep, Severe acute respiratory syndrome coronavirus 2, UniProt P0DTD1)
Observed: viral replication
Method: Gluc reporter
Organism: SARS-CoV-2
Concentration: 20 µM
SMILES	inhibition [%]
Cc1ccc(C#Cc2ccc(S(=O)(=O)N[C@H](Cc3c[nH]c4ccccc34)C(=O)O)s2)cc1	2.64
CC[C@H](NC(=O)[C@H](CS(=O)(=O)CC1CC1)N[C@@H](c1ccc(F)cc1)C(F)(F)F)C(=O)C(=O)NC1CC1	1.53
C=C1C(=O)C23C(O)C1CCC2C12COC3(O)C(O)C1C(C)(C)CCC2OC(C)=O (stereo not drawn)	-5.96

Study 2
Target: Spike glycoprotein (Severe acute respiratory syndrome coronavirus 2, UniProt P0DTC2)
Observed: binding
Method: biolayer interferometry
Compound	Kd
C[C@@H]1[C@H](O)[C@@H](C)/C=C/C=C/CC/C=C/C=C/C=C/C=C/C(O[C@H]2O[C@H](C)[C@@H](O)[C@H](N)[C@@H]2O)CC2O[C@](O)(CC(O)C(O)CCC(O)CC(O)CC(O)CC(=O)O[C@H]1C)CC(O)C2C(=O)O (stereo partly drawn)	25.4 µM
CO[C@H]1C[C@@H]2CC[C@@H](C)[C@@](O)(O2)C(=O)C(=O)N2CCCC[C@H]2C(=O)O[C@H]([C@H](C)C[C@@H]2CC[C@@H](O)[C@H](OC)C2)CC(=O)[C@H](C)/C=C(\C)[C@@H](O)[C@@H](OC)C(=O)[C@H](C)C[C@H](C)/C=C/C=C/C=C/1C	89.6 µM
COC(=O)[C@]1(C)CC[C@]2(C(=O)O[C@@H]3O[C@H](CO)[C@@H](O)[C@H](O)[C@H]3O)CC[C@]3(C)C(=CC[C@@H]4[C@@]5(C)C[C@H](O)[C@H](O[C@@H]6OC[C@@H](O[C@@H]7O[C@H](CO)[C@@H](O)[C@H](O)[C@H]7O)[C@H](O)[C@H]6O)[C@@](C)(CO)C5CC[C@]43C)[C@H]2C1 (stereo partly drawn)	31.4 µM

Other studies, line by line
SMILES	tested on	test	test system	setting	quantity	result
Nc1ncnc2c([C@@H]3N[C@H](CO)[C@@H](O)[C@H]3O)c[nH]c12	Marburg marburgvirus	virus production	HeLa, Musoke	6.3 µM	inhibition	93%
Cn1cnc(Cn2c(=O)[nH]/c(=N\c3cc4cn(C)nc4cc3Cl)n(Cc3cc(F)c(F)cc3F)c2=O)n1	–	–	human, normal renal function	oral, 375 mg, single dose, geometric mean	apparent volume of distribution (Vz/F)	23.9 L
CC[C@H](C)[C@H](NC(=O)[C@H](CC(C)C)NC(=O)[C@H](Cc1c[nH]c2ccccc12)NC(=O)[C@H](CCC(N)=O)NC(=O)[C@@H](NC(=O)[C@H](Cc1ccccc1)NC(=O)[C@H](C)NC(=O)[C@H](CCCCNC(=O)COCCOCCNC(=O)COCCOCCNC(=O)CC[C@H](NC(=O)CCCCCCCCCCCCCCCCCCC(=O)O)C(=O)O)NC(=O)[C@H](CCC(N)=O)NC(=O)[C@H](C)NC(=O)[C@@H](NC(=O)[C@H](CCCCN)NC(=O)[C@H](CC(=O)O)NC(=O)[C@H](CC(C)C)NC(=O)C(C)(C)NC(=O)[C@@H](NC(=O)[C@H](CO)NC(=O)[C@H](Cc1ccc(O)cc1)NC(=O)[C@H](CC(=O)O)NC(=O)[C@H](CO)NC(=O)[C@@H](NC(=O)[C@H](Cc1ccccc1)NC(=O)[C@@H](NC(=O)CNC(=O)[C@H](CCC(=O)O)NC(=O)C(C)(C)NC(=O)[C@@H](N)Cc1ccc(O)cc1)[C@@H](C)O)[C@@H](C)O)[C@@H](C)CC)[C@@H](C)CC)C(C)C)C(=O)N[C@@H](C)C(=O)NCC(=O)NCC(=O)N1CCC[C@H]1C(=O)N[C@@H](CO)C(=O)N[C@@H](CO)C(=O)NCC(=O)N[C@@H](C)C(=O)N1CCC[C@H]1C(=O)N1CCC[C@H]1C(=O)N1CCC[C@H]1C(=O)N[C@@H](CO)C(N)=O	–	–	patients with type 2 diabetes, serum	0.5 mg, baseline, proof of concept	serum ALT	29.8 ± 19.9 U/L

A few entries again (other studies, line by line):
SMILES	tested on	test	test system	setting	quantity	result
Nc1ncnc2c([C@@H]3N[C@H](CO)[C@@H](O)[C@H]3O)c[nH]c12	Marburg marburgvirus	virus production	HeLa, Musoke	6.3 µM	inhibition	93%
